# Assay results gathered from unrelated publications.
# Protein sequences, listed by entry. Tags and fused reporters are not part of them. Residues count along the entry.
# UniProt Q8TF76, whole entry: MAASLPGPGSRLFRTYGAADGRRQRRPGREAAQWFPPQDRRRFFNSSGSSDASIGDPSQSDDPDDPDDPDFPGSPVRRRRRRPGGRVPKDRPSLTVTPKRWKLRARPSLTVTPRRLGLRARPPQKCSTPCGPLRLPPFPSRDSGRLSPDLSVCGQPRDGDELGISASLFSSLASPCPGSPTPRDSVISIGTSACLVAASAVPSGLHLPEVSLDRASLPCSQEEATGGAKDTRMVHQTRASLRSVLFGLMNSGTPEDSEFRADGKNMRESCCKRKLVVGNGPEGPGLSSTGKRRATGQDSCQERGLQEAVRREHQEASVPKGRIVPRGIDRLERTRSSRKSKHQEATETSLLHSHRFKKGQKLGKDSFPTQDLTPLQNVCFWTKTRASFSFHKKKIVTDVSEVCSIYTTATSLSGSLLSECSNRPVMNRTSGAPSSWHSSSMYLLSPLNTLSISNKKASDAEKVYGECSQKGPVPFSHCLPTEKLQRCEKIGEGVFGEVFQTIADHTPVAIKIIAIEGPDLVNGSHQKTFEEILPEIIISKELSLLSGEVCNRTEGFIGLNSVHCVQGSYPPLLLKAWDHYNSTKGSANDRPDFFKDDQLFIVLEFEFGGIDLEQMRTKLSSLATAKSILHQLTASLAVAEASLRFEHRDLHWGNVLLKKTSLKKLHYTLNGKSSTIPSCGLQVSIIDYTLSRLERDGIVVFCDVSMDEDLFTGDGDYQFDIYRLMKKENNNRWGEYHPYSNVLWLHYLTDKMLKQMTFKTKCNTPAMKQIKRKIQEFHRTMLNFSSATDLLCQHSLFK
# UniProt Q00961, 20-1237 limits assumed: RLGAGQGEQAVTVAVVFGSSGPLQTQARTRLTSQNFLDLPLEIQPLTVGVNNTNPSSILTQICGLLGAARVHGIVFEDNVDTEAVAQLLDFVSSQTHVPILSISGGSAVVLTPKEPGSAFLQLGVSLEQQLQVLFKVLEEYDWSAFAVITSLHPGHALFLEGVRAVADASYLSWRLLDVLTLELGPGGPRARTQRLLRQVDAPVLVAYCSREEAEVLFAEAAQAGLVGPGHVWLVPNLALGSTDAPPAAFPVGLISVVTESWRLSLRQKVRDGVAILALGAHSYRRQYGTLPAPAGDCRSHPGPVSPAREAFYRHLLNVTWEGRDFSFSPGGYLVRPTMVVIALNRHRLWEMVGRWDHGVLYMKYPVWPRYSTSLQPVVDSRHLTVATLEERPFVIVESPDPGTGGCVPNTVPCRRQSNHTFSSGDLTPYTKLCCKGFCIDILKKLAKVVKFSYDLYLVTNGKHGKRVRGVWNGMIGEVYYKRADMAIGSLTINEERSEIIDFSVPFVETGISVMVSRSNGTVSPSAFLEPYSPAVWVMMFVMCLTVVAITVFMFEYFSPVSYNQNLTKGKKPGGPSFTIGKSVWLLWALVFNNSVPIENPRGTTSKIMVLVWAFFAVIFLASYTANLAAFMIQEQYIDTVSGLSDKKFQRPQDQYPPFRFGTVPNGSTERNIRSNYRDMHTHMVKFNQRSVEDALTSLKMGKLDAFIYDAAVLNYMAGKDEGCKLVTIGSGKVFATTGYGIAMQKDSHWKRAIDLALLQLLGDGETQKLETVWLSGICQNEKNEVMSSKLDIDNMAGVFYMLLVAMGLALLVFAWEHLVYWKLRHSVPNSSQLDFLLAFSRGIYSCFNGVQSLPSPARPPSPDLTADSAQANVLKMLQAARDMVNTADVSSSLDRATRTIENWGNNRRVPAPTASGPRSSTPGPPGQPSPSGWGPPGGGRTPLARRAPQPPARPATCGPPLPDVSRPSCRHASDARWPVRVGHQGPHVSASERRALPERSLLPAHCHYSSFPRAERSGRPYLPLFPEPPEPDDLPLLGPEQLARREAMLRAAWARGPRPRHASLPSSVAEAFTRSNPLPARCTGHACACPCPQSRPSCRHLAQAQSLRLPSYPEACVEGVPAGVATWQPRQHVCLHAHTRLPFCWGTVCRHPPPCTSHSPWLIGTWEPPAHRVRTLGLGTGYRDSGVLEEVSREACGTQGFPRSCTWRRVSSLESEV
# UniProt A0A381MCS3, 1-451: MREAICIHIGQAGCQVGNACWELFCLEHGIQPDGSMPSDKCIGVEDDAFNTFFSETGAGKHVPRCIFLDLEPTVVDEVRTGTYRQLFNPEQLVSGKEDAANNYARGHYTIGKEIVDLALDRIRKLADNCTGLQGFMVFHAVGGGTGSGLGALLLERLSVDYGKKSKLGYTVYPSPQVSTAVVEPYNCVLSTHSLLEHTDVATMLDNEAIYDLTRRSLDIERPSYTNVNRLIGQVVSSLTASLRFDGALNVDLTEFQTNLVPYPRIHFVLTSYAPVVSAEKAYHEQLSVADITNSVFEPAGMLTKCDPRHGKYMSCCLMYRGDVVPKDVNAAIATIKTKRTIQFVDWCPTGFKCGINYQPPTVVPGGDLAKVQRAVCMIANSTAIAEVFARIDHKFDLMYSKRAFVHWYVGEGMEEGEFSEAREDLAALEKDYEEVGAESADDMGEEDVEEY
# UniProt A4HTR0, 1-443: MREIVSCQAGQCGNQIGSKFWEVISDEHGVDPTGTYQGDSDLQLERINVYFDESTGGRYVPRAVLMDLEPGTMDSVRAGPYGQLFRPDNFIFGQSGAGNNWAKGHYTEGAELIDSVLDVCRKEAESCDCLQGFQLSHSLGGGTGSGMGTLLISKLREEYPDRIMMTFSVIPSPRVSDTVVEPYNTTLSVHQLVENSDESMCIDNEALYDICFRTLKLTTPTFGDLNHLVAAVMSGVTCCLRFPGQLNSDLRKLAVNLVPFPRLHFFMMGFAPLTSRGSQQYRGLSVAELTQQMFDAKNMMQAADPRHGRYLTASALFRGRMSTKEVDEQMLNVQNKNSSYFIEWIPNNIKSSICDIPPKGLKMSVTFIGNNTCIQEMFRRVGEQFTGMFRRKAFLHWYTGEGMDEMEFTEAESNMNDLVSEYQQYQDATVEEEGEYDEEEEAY
# UniProt Q9UM73, whole entry, looked up: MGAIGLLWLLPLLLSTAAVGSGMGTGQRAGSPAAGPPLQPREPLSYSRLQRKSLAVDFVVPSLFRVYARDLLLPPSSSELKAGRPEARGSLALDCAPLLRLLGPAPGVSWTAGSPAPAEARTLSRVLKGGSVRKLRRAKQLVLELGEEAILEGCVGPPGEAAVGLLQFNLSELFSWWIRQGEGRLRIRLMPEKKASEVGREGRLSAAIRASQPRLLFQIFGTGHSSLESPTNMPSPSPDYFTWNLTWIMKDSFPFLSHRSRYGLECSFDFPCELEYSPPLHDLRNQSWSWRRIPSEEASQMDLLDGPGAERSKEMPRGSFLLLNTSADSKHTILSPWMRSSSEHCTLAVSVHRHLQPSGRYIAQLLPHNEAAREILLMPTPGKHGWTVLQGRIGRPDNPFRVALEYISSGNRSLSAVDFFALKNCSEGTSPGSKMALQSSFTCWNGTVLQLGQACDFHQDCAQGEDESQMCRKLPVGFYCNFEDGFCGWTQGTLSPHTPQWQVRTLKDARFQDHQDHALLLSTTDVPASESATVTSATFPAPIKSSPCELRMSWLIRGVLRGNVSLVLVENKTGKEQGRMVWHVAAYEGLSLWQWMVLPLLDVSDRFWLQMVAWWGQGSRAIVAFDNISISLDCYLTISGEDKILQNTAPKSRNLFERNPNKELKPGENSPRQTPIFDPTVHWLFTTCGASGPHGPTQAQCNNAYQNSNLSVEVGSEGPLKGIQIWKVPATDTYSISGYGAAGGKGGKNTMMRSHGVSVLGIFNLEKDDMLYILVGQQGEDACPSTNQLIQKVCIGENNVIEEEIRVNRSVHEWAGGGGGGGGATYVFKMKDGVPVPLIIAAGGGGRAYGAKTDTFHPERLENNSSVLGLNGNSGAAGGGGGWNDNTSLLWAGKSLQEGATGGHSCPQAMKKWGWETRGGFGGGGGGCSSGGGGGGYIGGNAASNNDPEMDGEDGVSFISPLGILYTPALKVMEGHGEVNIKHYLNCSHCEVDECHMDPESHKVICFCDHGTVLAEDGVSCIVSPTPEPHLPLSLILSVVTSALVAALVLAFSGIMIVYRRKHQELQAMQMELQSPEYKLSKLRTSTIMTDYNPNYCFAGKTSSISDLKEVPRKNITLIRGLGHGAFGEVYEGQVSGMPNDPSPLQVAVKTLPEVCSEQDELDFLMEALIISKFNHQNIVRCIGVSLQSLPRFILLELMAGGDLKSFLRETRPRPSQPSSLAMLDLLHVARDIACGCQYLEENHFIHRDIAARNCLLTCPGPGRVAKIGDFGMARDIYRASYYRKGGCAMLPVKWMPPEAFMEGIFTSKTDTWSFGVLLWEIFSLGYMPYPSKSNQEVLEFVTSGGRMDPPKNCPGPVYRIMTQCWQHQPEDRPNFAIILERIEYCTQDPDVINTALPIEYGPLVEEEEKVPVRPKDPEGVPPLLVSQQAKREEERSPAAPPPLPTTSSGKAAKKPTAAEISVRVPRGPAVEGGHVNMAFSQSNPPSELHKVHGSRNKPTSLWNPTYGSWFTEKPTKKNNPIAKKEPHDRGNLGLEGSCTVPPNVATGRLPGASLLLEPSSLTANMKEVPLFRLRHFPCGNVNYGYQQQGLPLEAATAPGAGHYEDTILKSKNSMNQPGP
# UniProt P31421, 19-872 limits assumed: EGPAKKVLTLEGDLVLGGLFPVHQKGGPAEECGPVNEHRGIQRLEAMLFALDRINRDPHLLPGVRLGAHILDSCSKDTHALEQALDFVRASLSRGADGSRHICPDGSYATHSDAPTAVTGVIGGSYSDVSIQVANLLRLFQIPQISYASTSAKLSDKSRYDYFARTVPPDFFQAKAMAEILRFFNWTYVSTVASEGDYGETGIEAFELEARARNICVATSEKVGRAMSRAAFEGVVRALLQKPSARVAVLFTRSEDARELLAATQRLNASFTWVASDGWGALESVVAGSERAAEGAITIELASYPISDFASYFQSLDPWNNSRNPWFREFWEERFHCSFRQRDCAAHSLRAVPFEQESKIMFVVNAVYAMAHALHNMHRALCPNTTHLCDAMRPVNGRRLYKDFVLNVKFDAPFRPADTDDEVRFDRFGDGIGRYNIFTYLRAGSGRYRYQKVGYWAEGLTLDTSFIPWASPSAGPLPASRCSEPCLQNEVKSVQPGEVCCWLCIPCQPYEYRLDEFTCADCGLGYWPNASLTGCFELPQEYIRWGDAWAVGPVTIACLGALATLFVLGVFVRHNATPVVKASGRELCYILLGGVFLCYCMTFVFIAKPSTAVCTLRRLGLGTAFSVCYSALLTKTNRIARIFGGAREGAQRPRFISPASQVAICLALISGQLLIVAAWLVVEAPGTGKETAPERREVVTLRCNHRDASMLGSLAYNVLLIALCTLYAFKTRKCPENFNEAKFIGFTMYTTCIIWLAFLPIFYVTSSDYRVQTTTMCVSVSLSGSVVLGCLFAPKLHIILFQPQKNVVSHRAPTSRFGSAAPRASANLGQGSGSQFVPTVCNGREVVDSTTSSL
# UniProt P41594, 21-1212 limits assumed: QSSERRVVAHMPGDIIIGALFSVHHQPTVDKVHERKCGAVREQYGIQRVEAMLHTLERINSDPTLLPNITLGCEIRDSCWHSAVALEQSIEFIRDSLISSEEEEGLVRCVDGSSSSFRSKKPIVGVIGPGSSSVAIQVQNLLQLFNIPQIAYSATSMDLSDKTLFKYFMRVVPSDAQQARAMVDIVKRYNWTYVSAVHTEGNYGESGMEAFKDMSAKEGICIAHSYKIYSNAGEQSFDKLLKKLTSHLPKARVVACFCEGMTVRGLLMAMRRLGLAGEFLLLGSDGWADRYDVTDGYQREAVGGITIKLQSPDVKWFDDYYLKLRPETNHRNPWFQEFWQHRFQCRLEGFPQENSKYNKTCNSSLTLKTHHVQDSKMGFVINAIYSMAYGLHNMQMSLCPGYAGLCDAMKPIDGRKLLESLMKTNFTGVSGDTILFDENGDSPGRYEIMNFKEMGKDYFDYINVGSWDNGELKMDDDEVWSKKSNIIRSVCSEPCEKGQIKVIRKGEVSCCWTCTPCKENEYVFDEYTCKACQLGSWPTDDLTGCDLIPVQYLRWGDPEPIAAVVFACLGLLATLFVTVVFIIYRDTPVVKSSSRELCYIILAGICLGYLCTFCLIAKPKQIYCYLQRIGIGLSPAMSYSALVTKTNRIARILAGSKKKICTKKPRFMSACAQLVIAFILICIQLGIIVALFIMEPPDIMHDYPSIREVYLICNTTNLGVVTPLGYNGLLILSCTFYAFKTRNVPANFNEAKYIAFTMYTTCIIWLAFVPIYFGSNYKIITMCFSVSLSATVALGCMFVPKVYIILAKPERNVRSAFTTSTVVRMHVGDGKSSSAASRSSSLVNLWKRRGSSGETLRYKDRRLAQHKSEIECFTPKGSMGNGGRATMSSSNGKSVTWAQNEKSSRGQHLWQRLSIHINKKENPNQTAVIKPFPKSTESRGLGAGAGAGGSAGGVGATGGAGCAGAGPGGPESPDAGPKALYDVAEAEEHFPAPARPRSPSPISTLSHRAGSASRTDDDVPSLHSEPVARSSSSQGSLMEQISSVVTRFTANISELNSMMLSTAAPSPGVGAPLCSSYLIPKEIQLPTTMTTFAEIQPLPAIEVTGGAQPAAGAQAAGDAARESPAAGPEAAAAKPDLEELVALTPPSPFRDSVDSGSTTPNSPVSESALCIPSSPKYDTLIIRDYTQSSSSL
# Compare with care: the assays were run in different laboratories. Several values in a cell are separate wells, animals, samples, runs or records. Numbers after ± are the reported error.
Compound,tested on,test,system,setting,how to read,endpoint,result
Cc1nc(-c2ccc(C(F)(F)F)c(F)c2)sc1COc1ccc(SCC(=O)O)cc1,HEK293T,,,18 h,,CC50,> 100 µM
COc1cc2nc3ccccc3c(SCCCN)c2cc1OC,"HASPIN (Homo sapiens, UniProt Q8TF76)","inhibitor, TR-FRET",,added: histone H3 peptide,,IC50,~7 µM
Cc1cc(SCc2sc(-c3ccc(F)c(F)c3F)nc2C)ccc1OCC(=O)O,HEK293T,,,18 h,,CC50,> 80 µM
C[C@H](NC(=O)c1cc(C(=O)O)cc([C@H]2CCN[C@@H]2C(=O)O)c1)C(=O)O,"Glutamate receptor ionotropic, NMDA 2C, with GluN1 (Rattus norvegicus, UniProt Q00961)","ion current, antagonist, two-electrode voltage clamp",Xenopus oocytes,"GluN1/GluN2C, added: glycine 100 µM and glutamate 1 µM",,IC50,11.6 ± 0.62 µM
N#Cc1ccc2[nH]cc(/C=C/c3cccc(O)c3)c2c1,"IDO1 (Homo sapiens, UniProt P14902)","enzyme activity, inhibitor",,,,IC50,21.4 µM
COC(=O)[C@@H]1C(C=Nc2cncnc2NC(C)=O)=Cc2cc3c(cc2[C@H]1c1cc(OC)c(OC)c(OC)c1)OCO3,"Tubulin alpha/beta heterodimer (Leishmania infantum, UniProt A0A381MCS3+A4HTR0)","tubulin polymerization, inhibitor",,"37 °C, added: tubulin 1.2 mg/mL",,IC50,0.78 µM and 0.8 µM
O=C(NCc1ccc(Cl)cc1)[C@@H]1C[C@@H](O)CN1C(=O)c1ccc(Cl)cc1,"von Hippel-Lindau disease tumor suppressor, with elongin B, C (VHL, Homo sapiens, UniProt P40337)","binding, fluorescence polarization",,"10% DMSO, added: FAM-HIF1α peptide tracer",,IC50,70 ± 10 µM
CCCCCCCCCCCCNC(=S)NCCCC[C@H](NC(=O)CCCCCCCC)C(=O)N[C@H](C)C(=O)N[C@@H](CCCNC(=N)N)C(N)=O,"SIRT2 (Homo sapiens, UniProt Q8IXJ6)","deacetylation, inhibitor",,"NAD+ 500 µM, added: acetylated peptide 50 µM",,IC50,0.51 ± 0.03 µM
Cc1nc(N)sc1-c1csc(Nc2cccc(O)c2)n1,"Protein-lysine 6-oxidase (Homo sapiens, UniProt P28300)","LOX activity, inhibitor",MDA-MB-231,,,IC50,> 10 µM
CS(=O)(=O)Nc1cccc(/C=C/c2c[nH]c3ccc(C#N)cc23)c1,"Amyloid-beta precursor protein, amyloid-beta peptide (APP, Homo sapiens, UniProt P05067)","Aβ42 oligomerisation, ELISA",,,,IC50,9.8 µM
CC(C)[C@H](N)c1nc2cc(-c3cc(F)ncc3F)sc2c(=O)[nH]1,"CDC7 (Homo sapiens, UniProt O00311)","enzyme activity, inhibitor",,,,IC50,0.113 ± 0.00453 µM
O=C(OC(C(F)(F)F)C(F)(F)F)N1CC(OC(c2ccccc2)c2ccccc2)C1,"ABHD6 (Homo sapiens, UniProt Q9BV23)","inhibitor, fluorescence",,,,IC50,0.0324 ± 0.0029 µM
c1cncc(-c2ccc(-c3cncs3)nc2)c1,"ALK (Homo sapiens, UniProt Q9UM73)",ELISA,,,,IC50,58 µM
NC(=O)c1cn(-c2ccc(F)cc2)c2ccc(OCc3cccnc3)cc2c1=O,"Grm2 (Rattus norvegicus, UniProt P31421)","calcium mobilization, negative allosteric modulator",,,,IC50,0.895 µM
COc1ccccc1C(=O)Nc1ccc(-c2nc3ccc(NC(=O)c4ccccc4OC)cc3s2)cc1,"Tyrosine-protein kinase SYK, with FCER1G (SYK, Homo sapiens, UniProt P43405)","protein binding, inhibitor, TR-FRET",,,,IC50,17.4 µM
COc1cc(-c2nc3sc4cc(-c5ccc(O)cc5)ccc4c3c(=O)[nH]2)ccc1OCC(=O)O,"FGFR1 (Homo sapiens, UniProt P11362)","kinase activity, inhibitor, AlphaScreen",,added: biotinylated peptide substrate,,IC50,6 µM
COC(=O)[C@@]1(C)C=C(C(=O)Nc2cccc(C(=O)NC34CC(Nc5nccc(-c6cccnc6)n5)(C3)C4)c2)C(=O)CC1,"MAPK8 (Homo sapiens, UniProt P45983)","kinase activity, inhibitor",,"44.44 µM, unit not given, added: 10 mM GSH",reference: DMSO,remaining activity,0.0213
Cc1ccc(CN2CCN(c3cc(N4CCCC4)nc(N4CCCC4)n3)CC2)cc1,"Caspase-1 (CASP1, Homo sapiens, UniProt P29466)","enzyme activity, inhibitor",,"30 min preincubation, added: Ac-WEHD-AMC 10 µM",,IC50,0.1 ± 0.016 µM
O=C(CCCCCn1c(=S)[nH]c2ccccc2c1=O)N1CCN(c2cccc(Cl)c2)CC1,"Estrogen receptor (ESR1, Homo sapiens, UniProt P03372)","reporter gene, coactivator binding inhibitor, luciferase reporter",HEC-1 cells transfected with ERα,"partial inhibition, added: estradiol 1 nM",,IC50,5.2 µM
CSc1cc(NC(=O)c2ccccn2)ccc1Cl,"GRM5 (Homo sapiens, UniProt P41594)",antagonist,,,,IC50,> 30 µM
CCC(C)N1c2ccccc2C(=O)Nc2cnc(Nc3ccc(C(=O)N4CCC(N5CCN(C)CC5)CC4)cc3OC)nc21 (stereo not drawn),"LRRK2 (Homo sapiens, UniProt Q5S007)","kinase activity, Adapta",,,,IC50,1.59 ± 0.37 µM

# For quick reference, copied from above:
Compound,tested on,test,system,setting,how to read,endpoint,result
CC(C)[C@H](N)c1nc2cc(-c3cc(F)ncc3F)sc2c(=O)[nH]1,"CDC7 (Homo sapiens, UniProt O00311)","enzyme activity, inhibitor",,,,IC50,0.113 ± 0.00453 µM
